Measurements from different studies.
Numbered parts are unrelated; each lists some results of a single study. Values joined by “and” are separate records of one study, mostly repeats; a detail may differ.

Set 1
Target: Alpha-1D adrenergic receptor (ADRA1D, Homo sapiens, UniProt P25100)
UniProt P25100, sequence (whole entry, looked up): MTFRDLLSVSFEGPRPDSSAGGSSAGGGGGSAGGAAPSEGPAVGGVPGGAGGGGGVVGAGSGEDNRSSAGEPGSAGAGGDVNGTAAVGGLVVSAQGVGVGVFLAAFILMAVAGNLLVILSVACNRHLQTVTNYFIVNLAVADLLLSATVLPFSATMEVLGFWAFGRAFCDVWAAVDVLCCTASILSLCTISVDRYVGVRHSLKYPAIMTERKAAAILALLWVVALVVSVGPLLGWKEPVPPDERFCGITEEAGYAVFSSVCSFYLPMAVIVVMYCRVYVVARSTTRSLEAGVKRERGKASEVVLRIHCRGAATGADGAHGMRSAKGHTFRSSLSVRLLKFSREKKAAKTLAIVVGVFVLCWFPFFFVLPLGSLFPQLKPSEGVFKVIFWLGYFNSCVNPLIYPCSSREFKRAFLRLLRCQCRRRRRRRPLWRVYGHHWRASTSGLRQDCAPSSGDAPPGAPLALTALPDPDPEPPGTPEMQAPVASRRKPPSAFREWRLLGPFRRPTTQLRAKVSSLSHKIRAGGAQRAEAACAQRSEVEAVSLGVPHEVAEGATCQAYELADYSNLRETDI
Effect on: binding
Technique: radioligand binding
Concentration: 10 µM
Quantity: inhibition
C[C@@]1(Cc2ccc(C#N)cc2)C(=O)N(c2cc(Cl)cc(Cl)c2)c2ncc(C(=O)NC3(c4nc(C5CCC5)no4)CC3)n21: 8.28%
CCOCCn1cc(C(=O)Nc2ccc(-n3nc(-c4cccnc4)cc3C(F)(F)F)cn2)ccc1=O: -14.4%
O=C([C@H]1C[C@H](O)CN1c1ccc(Cl)cc1)N1CC2COCC(C1)N2Cc1ccc(Cl)cc1: -7.34%
Cc1nc(N2CC[C@@H](O)C2)ncc1-c1cc(C(F)(F)F)cc2[nH]ncc12: -10.6%
COc1nc2ccc([C@@](O)(c3ccccc3)C3CCN(C(C)=O)CC3)cc2c(Cl)c1Cc1ccc(-n2cccn2)cc1: 6.64%
Cc1c(N2CCCC2)nc2ccc(Br)cc2c1C(=O)NC[C@H](CCC(=O)O)c1ccccc1Cl: 3.44%
CCCOc1ccc([C@H]2[C@H](C(=O)O)[C@@H](c3ccc4c(c3)OCO4)CN2CC(=O)Nc2c(CC)cccc2CC)cc1: -1.79%
CN([C@@H]1CCc2c(CC(=O)O)c3cc(S(C)(=O)=O)ccc3n2C1)S(=O)(=O)c1ccc(F)cc1: -11.6%
O=C(Nc1cnc(Oc2ccc(F)cc2)nc1)N1CCc2ncccc2[C@@H]1c1ccc(F)cc1: 8.01%
COCCc1ccc(-c2c(C)nc3c(N4CCOCC4)ccnn23)cn1: 15.3%
O=C(O)c1cc(-c2ccc(C3CCNCC3)cc2)c2ccc(-c3ccc(C(F)(F)F)cc3)cc2c1: 33.5%
O=C1CCc2cc(Nc3cc(OC4CCOCC4)c([N+](=O)[O-])cc3Cl)ccc2N1: 3.49%

Set 2
SMILES: CC(=O)N[C@@H](Cc1c[nH]c2ccccc12)C(=O)N[C@@H](CCC(=O)C=[N+]=[N-])C(=O)OC(C)C
Quantity: remaining compound
mouse intestinal homogenate; 5 µM, 0.05 h, with: pepstatin A 1.0 µM: 0.941%
mouse intestinal homogenate; 5 µM, 0.05 h, with: Pefabloc 1 mM: 22%
mouse intestinal homogenate; 5 µM, 0 h, with: pepstatin A 1.0 µM: 100%
C57BL/6 CES1-/- mice, mouse plasma; 20 µM, 60 min, 37 °C: 94%
mouse, EL4 tumour homogenate; 5 µM, 0 h, with: pepstatin A 1.0 µM: 100%
mouse EL4 tumour homogenate; 5 µM, 0.05 h, no inhibitor: 0.15% and 0.152%
mouse intestinal homogenate; 5 µM, 1 h, with: leupeptin 100 µM: 8.44%
mouse intestinal homogenate; 5 µM, 1 h, with: dichlorvos 500 µM: 90%
mouse intestinal homogenate; 5 µM, 0 h, with: PMSF 1.0 mM: 100%

Set 3
Host: human
Matrix: microsomes or S9
Concentration: 2 µM
Time: 0.5 h
Quantity: remaining compound
CN(C(=O)c1cc2c(s1)-c1ccsc1CC2)C1CCCCC1: 1.74%
O=C(Nc1nc(-c2ccncc2)cs1)c1ccccn1: 13.1%
CC1=C(C(=O)NC2CCN(Cc3ccc(OCCCN(C)C)cc3)CC2)Cc2ccccc21: 97.4%
Fc1ccc(-c2cc(-c3nc4c5c(ncn4n3)CCC5)[nH]n2)cc1: 32.9%
O=C(NC1CCN(Cc2ccc3c(c2)OCO3)CC1)c1cc2ccc3ccccc3c2o1: 30.8%
CCn1ccc(C(=O)N2C[C@@H](F)C[C@H]2Cn2cc(C(N)=O)nn2)n1: > 100%
O=C1CCc2cc(Cl)ccc2N1Cc1ccc(Cl)cc1Cl: 54.2%

Set 4
Target: RAF proto-oncogene serine/threonine-protein kinase (RAF1, Homo sapiens, UniProt P04049)
UniProt P04049, sequence (whole entry, looked up): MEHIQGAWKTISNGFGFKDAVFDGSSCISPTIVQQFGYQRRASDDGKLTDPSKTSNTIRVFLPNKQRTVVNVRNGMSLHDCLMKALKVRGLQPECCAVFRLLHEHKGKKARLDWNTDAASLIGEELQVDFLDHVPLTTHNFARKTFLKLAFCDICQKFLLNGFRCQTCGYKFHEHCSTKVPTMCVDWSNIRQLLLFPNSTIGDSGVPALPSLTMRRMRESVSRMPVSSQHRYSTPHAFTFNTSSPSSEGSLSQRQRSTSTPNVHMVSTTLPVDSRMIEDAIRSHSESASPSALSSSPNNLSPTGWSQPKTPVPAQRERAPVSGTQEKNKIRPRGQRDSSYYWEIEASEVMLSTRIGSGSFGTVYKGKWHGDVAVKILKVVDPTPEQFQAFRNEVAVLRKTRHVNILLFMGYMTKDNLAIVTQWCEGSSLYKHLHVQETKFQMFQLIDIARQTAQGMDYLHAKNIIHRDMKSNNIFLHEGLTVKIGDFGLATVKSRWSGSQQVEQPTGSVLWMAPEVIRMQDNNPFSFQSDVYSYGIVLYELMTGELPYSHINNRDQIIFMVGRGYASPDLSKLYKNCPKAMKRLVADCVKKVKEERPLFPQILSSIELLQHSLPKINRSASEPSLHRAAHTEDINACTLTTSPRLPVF
Effect on: enzyme activity
Mode: inhibitor
Concentration: 0.5 µM
Relative to: control
Quantity: remaining activity
CN(C)CCCn1cc(C2=C(c3c[nH]c4ccccc34)C(=O)NC2=O)c2ccccc21: 118%
COc1cc2ncnc(N3CCN(C(=O)Nc4ccc(Oc5ccccc5)cc4)CC3)c2cc1OC: 88%
Cc1nc(Nc2ncc(C(=O)Nc3c(C)cccc3Cl)s2)cc(N2CCN(CCO)CC2)n1: 39.7%
Cn1cnc2cc3c(Nc4cccc(Br)c4)ncnc3cc21: 98.6%
CC(C)c1nn(-c2c(Cl)cccc2Cl)c2nc(Cc3ccc(OCCO)cc3)[nH]c(=O)c12: 95.8%
CC(C)[C@H](CO)Nc1nc(Nc2cccc(Cl)c2)c2ncn(C(C)C)c2n1: 98.9%
COc1ccc(Cl)cc1NC(=O)Nc1cc(C)nc2ccccc12: 94.8%
Nc1[nH]nc2nnc(-c3c(-c4ccccc4)nn4ccccc34)cc12: 95.6%
CCN1/C(=C/C(C)=O)Sc2ccc(OC)cc21: 95.9%
Cn1cc(/C=C2\C(=O)Nc3ccc(S(N)(=O)=O)cc32)c2ccccc21: 102%
O=C(Nc1ccc(Cl)cc1)c1ccccc1NCc1ccncc1: 62.6%
COc1cc2ncnc(Nc3ccc(OCc4ccccc4)cc3)c2cc1OC: 61%
O=c1cc(N2CCOCC2)oc2c1ccc1ccccc12: 97.9%
CCC(=O)Nc1ccc2ncnc(Nc3cccc(Br)c3)c2c1: 98.4%
COc1cc2ncc(-c3ccccc3)nc2cc1OC: 106%
CS(=O)(=O)CCNCc1ccc(-c2ccc3ncnc(Nc4ccc(OCc5cccc(F)c5)c(Cl)c4)c3c2)o1: 85.9%
O=C1NC(=O)/C(=C/c2ccc3nccnc3c2)S1: 92.3%
Cc1ccc(NC(=O)c2ccc(CN3CCN(C)CC3)cc2)cc1Nc1nccc(-c2cccnc2)n1: 47.9%
CCOc1cc2ncnc(Nc3cccc(Br)c3)c2cc1OCC: 91.6%

Excerpt of the above (set 4):
CC(C)c1nn(-c2c(Cl)cccc2Cl)c2nc(Cc3ccc(OCCO)cc3)[nH]c(=O)c12: 95.8%
CC(C)[C@H](CO)Nc1nc(Nc2cccc(Cl)c2)c2ncn(C(C)C)c2n1: 98.9%
COc1ccc(Cl)cc1NC(=O)Nc1cc(C)nc2ccccc12: 94.8%
Nc1[nH]nc2nnc(-c3c(-c4ccccc4)nn4ccccc34)cc12: 95.6%
CCN1/C(=C/C(C)=O)Sc2ccc(OC)cc21: 95.9%
Cn1cc(/C=C2\C(=O)Nc3ccc(S(N)(=O)=O)cc32)c2ccccc21: 102%
O=C(Nc1ccc(Cl)cc1)c1ccccc1NCc1ccncc1: 62.6%
